# Published values of several laboratories.
# Protocols differ between the studies behind these lines. “And” joins repeats or separate records; there may be more than shown.
# Target: Focal adhesion kinase 1 (PTK2, Homo sapiens, UniProt Q05397)
SMILES,assay,test system,conditions,how to read,endpoint,value
COc1c(OCCCN2CCOCC2)ccc2c1N=C(NC(=O)c1cnc(N)nc1)N1CCN=C21,"kinase activity, inhibitor",,1 µM,baseline: untreated control,remaining activity,82%
Cc1cccc(O[C@H]2CCC[C@@H](C(C)CNCc3ccncc3)C2)c1 (relative stereo),"enzyme activity, inhibitor",,10 µM,,inhibition,-4%
COc1ccc(C(=O)/C=C/c2ccccc2-c2c[nH]c3ccc(C#N)cc23)c(O)c1,"enzyme activity, inhibitor",,20 µM,,inhibition,2%
COc1cc(Nc2nccc(-c3cnn4nc(OC)ccc34)n2)cc(C(F)(F)F)c1,"binding, competition with immobilised ligand",,1 µM,,remaining binding,100%
COCC12C(=O)NC3C4(C(OC)CC1O)C1CC5(O)C(OC)C(O)C(OC(C)=O)(C1C5OC(=O)c1ccccc1)C3(O)C(OC)C24 (stereo not drawn),"kinase activity, inhibitor, ProQinase kinase profiling",,25 µM,baseline: control,remaining activity,101% and 110%
CN1CC[C@@H](COc2cnc(C#N)cc2-c2ccn3nc(NC(=O)C4CC4)cc3c2)C1,"enzyme activity, inhibitor",,1 µM,,inhibition,-3%
O=C(Nc1ccc(Oc2ncnc3[nH]cc(-c4ccccc4)c23)c(F)c1)c1c2n(n(-c3cc(F)ccc3F)c1=O)CCCC2,"enzyme activity, inhibitor",,0.5 µM,,inhibition,-4%
CNC(=O)C1CCN(c2cc(C)c(F)cc2NC(=O)c2ccc(-c3cc(O)ccc3C)c(C)c2)CC1,"binding, competition with immobilised ligand",,1 µM,,remaining binding,100%
Nc1ncc2c(n1)-c1c([nH]c3ccc(C4=CCOCC4)cc13)CCC2,"binding, competition with immobilised ligand",,1 µM,,remaining binding,100%
NC(=O)[C@@H](O)C[C@H]1CCc2sc3ncnc(O[C@H]4CC[C@H](N5CCOCC5)CC4)c3c21,"enzyme activity, inhibitor",,10 µM,,inhibition,15%
CN1CCN(Cc2ccc(NC(=O)c3cccc(C#Cc4cnc(N)c5ncccc45)c3)cc2C(F)(F)F)CC1,"cell-free assay, competition with immobilised ligand",,50 nM,,remaining binding,97%
COC(=O)[C@@]1(C)C=C(C(=O)Nc2cccc(C(=O)Nc3ccc(Nc4nccc(-c5cccnc5)n4)c(C)c3)c2)C(=O)CC1,"enzyme activity, inhibitor, radiometric",,1 µM,,remaining activity,65%
C=CC(=O)N1CCCC(n2c(=O)c3ncccc3n(Cc3ccc(Oc4ccccc4)cc3)c2=O)C1 (stereo not drawn),"cell-free assay, competition with immobilised ligand",,1 µM,,remaining binding,78%
CNS(=O)(=O)Nc1nccc(Cc2c(C)c3ccc(Oc4ncccc4F)cc3oc2=O)c1F,"binding, competition with immobilised ligand",,10 µM,,remaining binding,100%
Nc1ncc(-c2cc(-c3cnn(CC(F)(F)F)c3)ncc2F)nc1C(=O)NC1CNCC(F)C1 (stereo not drawn),enzyme activity,,1 µM,baseline: DMSO control,remaining activity,97.9%
Cc1cnc2nc1Nc1cccc(c1)COC/C=C/COCc1cc(ccc1OCCN1CCOCC1)N2,"binding, competition with immobilised ligand",,0.1 µM,,remaining binding,91%
CNC1C[S+]2CC[S+]3CC[S+](C1)[Ru-4]321([N]=C=S)[n]2c3ccc(OC)cc3c3c4c(c5cc(F)c[n+]1c5c32)C(=O)NC4=O (stereo not drawn),KinomeScan,,0.1 µM,baseline: untreated,remaining binding,90%
COc1c(Cl)cccc1Nc1c(-c2ccncc2C#C[C@@]2(C)CCCN2C(=O)/C=C/CN(C)C)[nH]c2c1C(=O)NCC2,"binding, competition with immobilised ligand",,3 µM,,remaining binding,95%
COc1ccc(NC(=O)Nc2ccc3c(c2)C(=O)N(C(C)CO)CC(C)C(CN(C)Cc2ccc4c(c2)OCO4)O3)cc1 (stereo not drawn),"binding, competition with immobilised ligand",,10 µM,,remaining binding,100%
C=CC(=O)Nc1cccc(-c2cnc3[nH]cc(C(=O)NC(C)(C)C)c3n2)c1,kinase activity,,0.1 µM,,inhibition,4% and 1%
N[C@H]1CC[C@H](Nc2nccc(-c3cccnc3Oc3ccc(NC(=O)NC4CC4)c4ccccc34)n2)CC1,kinobead competition pulldown,HEK293/HCT116 lysate mixture,"10 µM, 1 h, 4 °C",lower = stronger competition,log2 LFQ intensity,30.8 and 30.7 and 31

# Excerpt of the above:
SMILES,assay,test system,conditions,how to read,endpoint,value
Nc1ncc2c(n1)-c1c([nH]c3ccc(C4=CCOCC4)cc13)CCC2,"binding, competition with immobilised ligand",,1 µM,,remaining binding,100%
